# Assay results pooled from the literature.
# Numbered parts are unrelated; each lists some results of a single study. Changes are numbered by the printed parent chain.

# Sample 1 — target: CCNE1, cyclin fold, Cln2 fusion (human); technique: yeast growth competition, sequencing; matrix: yeast; notes: strong parent motif; reference: not given; reading: higher = stronger binding
# Starting sequence: PKMYT1 docking peptide (human); SFEPRNLLSLFED; partner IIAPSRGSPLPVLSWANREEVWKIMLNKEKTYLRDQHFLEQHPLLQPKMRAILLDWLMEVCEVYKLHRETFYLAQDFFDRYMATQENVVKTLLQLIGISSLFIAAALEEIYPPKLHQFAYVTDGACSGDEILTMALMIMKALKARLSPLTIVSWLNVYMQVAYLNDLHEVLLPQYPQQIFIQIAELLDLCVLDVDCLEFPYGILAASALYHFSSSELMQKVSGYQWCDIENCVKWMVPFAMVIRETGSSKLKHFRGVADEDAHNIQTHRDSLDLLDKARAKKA
Change,normalised enrichment score
L10V,1.27
R5Q,1.24
S1D,1.89
S1P,1.72
S9Q,1.89
S1N,1.66
E12D,2.02
E12I,2.44
E3I,1.68
L7P,0.274
L10I,1.22
N6F,1.48
F11V,0.248
D13Q,1.82
E3H,2.19
R5K F11L,0.576
S9H,1.65
L8T,0.815
F2A,0.637
F2P,0.869
L10Y,2.08
S1I,1.69

# Sample 2 — technique: universal PBM; form: double-stranded DNA, one strand shown; matrix: in vitro; concentration: 600 nM; reading: higher = stronger binding
# Target: Sal-like protein 4, full length isoform A (SALL4, Homo sapiens, UniProt Q9UJQ4, residues 1-1053)
# Sequence of UniProt Q9UJQ4 (whole entry, looked up): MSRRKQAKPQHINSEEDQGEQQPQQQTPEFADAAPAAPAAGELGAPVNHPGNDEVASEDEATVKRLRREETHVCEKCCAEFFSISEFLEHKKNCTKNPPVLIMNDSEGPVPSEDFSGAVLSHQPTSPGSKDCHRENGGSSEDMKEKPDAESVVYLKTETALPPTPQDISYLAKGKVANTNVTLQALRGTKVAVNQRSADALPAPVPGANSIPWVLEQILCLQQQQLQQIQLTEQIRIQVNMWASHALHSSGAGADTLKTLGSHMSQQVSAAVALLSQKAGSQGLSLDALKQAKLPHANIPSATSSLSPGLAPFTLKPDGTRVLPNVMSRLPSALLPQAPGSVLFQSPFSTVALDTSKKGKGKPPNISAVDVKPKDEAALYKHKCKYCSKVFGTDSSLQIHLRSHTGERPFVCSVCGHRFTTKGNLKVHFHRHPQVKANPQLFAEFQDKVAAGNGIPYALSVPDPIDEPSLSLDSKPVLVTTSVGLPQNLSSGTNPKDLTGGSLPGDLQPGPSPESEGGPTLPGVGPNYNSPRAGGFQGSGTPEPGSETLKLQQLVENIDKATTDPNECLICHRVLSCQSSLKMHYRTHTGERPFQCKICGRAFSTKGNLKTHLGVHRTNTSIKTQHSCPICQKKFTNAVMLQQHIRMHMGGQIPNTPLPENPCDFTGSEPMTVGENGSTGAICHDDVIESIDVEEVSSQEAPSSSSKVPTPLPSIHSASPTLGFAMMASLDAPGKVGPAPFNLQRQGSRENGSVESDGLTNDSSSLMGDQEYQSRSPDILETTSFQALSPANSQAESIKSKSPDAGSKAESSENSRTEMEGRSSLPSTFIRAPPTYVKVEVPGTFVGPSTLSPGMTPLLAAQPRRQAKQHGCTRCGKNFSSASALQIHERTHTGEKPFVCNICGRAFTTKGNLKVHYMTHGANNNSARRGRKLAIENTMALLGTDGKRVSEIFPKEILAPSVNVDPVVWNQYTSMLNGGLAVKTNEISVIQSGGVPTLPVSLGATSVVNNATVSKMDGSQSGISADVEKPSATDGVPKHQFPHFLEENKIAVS
# Notes: 8-mer, flanks averaged, mean of replicates
Oligonucleotide,E-score
CGTAGCAC,-0.0306
CCATCAAG,-0.1
TGCTTGAA,0.169
AGTGCTCC,-0.224
GAGTAAAC,0.0215
AACGAAAC,0.0398
ACTGCGGC,-0.319
CGGAGCAG,-0.235
ATCTCAAA,0.271
TCCCGCCA,-0.165
AAGGATGT,-0.0812
ATAGCACA,0.11
CTCGGAAA,-0.0377
GGCATAAA,0.23
ACCTGCAA,-0.12
ATACGGCC,-0.108
CCTCCAGA,0.0588

# Sample 3 — technique: RNA Bind-n-Seq; form: RNA; matrix: in vitro; concentration: 365 nM; reference: no-protein control; reading: higher = stronger binding
# Target: RNA binding protein fox-1 homolog 2, RRM domain, GST-SBP tag (RBFOX2, Homo sapiens, UniProt O43251-10, residues 100-194)
# Notes: natural RNA segment, single round, ends assumed
# Constant ends, left off below: GGGAGUUCUACAGUCCGACGAUC … UGGAAUUCUCGGGUGCCAA
# Residues (chain): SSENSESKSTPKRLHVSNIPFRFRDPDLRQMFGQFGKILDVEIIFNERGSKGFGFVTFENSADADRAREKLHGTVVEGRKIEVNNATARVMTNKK
Oligonucleotide,RBNS enrichment (R)
GCAAUUCUUCCCAGGGCCCUGUGACCCUGUGUUCCACCCCGACCCCACACUGGACUAGUCUAUGCCUCAUGUGUCCAGCUUCCAUGUUGGACUUCGACCAGCAUCUGAAG,0.273
CUGGUCACAGGACUCUGCCUCCUCUUCAACUGACCAGCCUCCAUGCUGCCUCCAGAAUGGUCUUUCUAAUGUGUGAAUCAGAGCACAGCAGCCCCUGCACAAAGCCCUUC,0.189
CCCCUCCAGCCAGGACUCUCCUACAUGUGGCCCCCAUAGGCCUCUGUGGCUGCAAGGCGGUCAGUUGCUGCUUGUCCCAGCAGGUGGCCUUGAUCUCUCCAUGCCCCACC,0.385
AAAAUUCAAACUGCCUAUAUUGAUAAAACCAUACAGUGAGCCAGCCUUGCAGUAGGCAGUAGACUAUAAGCAGAAGCACAUAUGAACUGGACCUGCACCAAAGCUGGCAC,0.351
CCAGAAGUUAGUGUCCGAAGACCGAAUUUUAUUUUACAGAGCUUGAAAACUCACUUCAAUGAACAAAGGGAUUCUCCAGGAUUCCAAAGUUUUGAAGUCAUCUUAGCUUU,0.472
CCUCUACUUUUGCCCCUCUACUGUAUAUUAAGCCCAUAGGCUUGUGGGAGGAAGGAGAAUUUCCAUUAGGCAAGCUGUAUGCAGUGGAAUUUUCCUUUUAGGAGACACAC,1.95
UUCCAAGAGAGGACAGCAAGUCCCCUGACACUGCAAAUUUCAUUUGAGCCUAGGGAGCUGGGAAAACAGUUGGGCCUAGUCUGUUUUUGAAUUGCAUUGCAUUGAGUUGU,0.69
UGAGGUGAAUUUUGUUUGUCAUACAUGGAACCAUUUUAGUCCCAUUUGACUCACUUCAGACCAUCUUCCACACACUAUGUCUGUGCUUGGAGAGGGGAGGUGGCUCUCCA,0.41

# Sample 4 — technique: protein binding microarray; form: double-stranded DNA, one strand shown; matrix: in vitro; concentration: not given; reference: not given; reading: higher = stronger binding
# Target: Histone acetyltransferase KAT6A, winged helix 2, GST fusion (KAT6A, Homo sapiens, UniProt Q92794, residues 85-181)
# Notes: 8-mer, flanks averaged, mean of 2 arrays, mostly near background
# Target sequence (chain): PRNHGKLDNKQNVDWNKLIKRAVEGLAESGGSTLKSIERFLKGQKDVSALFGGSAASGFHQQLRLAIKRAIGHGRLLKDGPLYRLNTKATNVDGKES
Oligonucleotide,E-score
GAAGAGGA,-0.0531
GGTTTCAA,-0.00114
ACACCTCT,-0.143
GCACCTCC,0.11
GAAAGAGC,-0.129
GAGCAATC,0.0824
CGTAGATC,-0.0275
AGTACTGA,-0.0156
CTAGTCAG,-0.111
AAGAAGCT,-0.0307
TACATCAA,-0.0115
CTACCCTC,0.0196
GAAGGAGA,-0.172
CCGTGCCG,0.0823
GTGGTGGA,-0.119
AATGAATC,-0.0143
ACCCCCTC,0.0861
ATCCGTCC,0.00219
CCTCGAAA,0.0946
AGCTAGCG,-0.0789
CGAACGGC,0.165
GATCTGAA,-0.00679
AGGGTCAT,-0.16
ACCGGTGC,0.00489
CGCGTTCC,0.159

# Sample 5 — technique: competition protein-binding microarray; form: double-stranded DNA, one strand shown; matrix: in vitro; concentration: 2 µM; together with: Pho4 competitor, 0.05 µM; reading: higher = stronger binding; constant ends, left off below: … GTCTTGATTCGCTTGACGCTGCTG
# Target: Centromere-binding protein 1, full length, His-tagged (CBF1, Saccharomyces cerevisiae, UniProt P17106, residues 1-351)
# Sequence of UniProt P17106 (whole entry, looked up): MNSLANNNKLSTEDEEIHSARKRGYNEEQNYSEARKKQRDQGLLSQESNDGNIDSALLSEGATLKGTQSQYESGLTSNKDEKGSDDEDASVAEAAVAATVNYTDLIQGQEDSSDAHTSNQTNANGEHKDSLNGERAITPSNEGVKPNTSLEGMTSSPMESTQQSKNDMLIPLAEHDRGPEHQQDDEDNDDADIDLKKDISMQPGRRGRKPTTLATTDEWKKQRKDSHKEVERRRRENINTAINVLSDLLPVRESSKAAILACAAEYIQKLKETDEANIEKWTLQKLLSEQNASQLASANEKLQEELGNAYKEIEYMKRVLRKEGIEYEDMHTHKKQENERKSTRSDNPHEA
# Notes: whole 60-bp probe, lowest competitor level
Oligonucleotide,fluorescence intensity [a.u.]
CCGATTTAAATGTCCCACGTAAACTTTTCGCCAATT,81.5
ATATAAAGTTGTCCTCACATGCGGCGTCCATTGTTC,163
AATTGATTCATATGGAACGTGACTCGTCCTCTGTAG,483
AAATTACTAAGTTGCTTAGTGGGTGACGCCGTATGA,62.4
TCTATAATAACGTCCCACGTGAAAATACCAACCTCT,931
GATCCTCGCCTGGGTGGCGTGCTTTGTGGTGAATGC,89.6
CTTTCCCGATCTTGTCACTATACTTTAGCACATTTG,78.2
TGTTTCAAGTCTTCCGACATGACAGCGTAGTTATGG,80.9
GACTTGGCCTAGTTCCACATGTTTTTCATCATCCAG,92.7
CTTCTGTAAATTTGGCGTGTGGGTGGACGCGCCCCG,84.2
TACTATAGGGGCCGACACGTTAGGTGATGACGATAA,57.2
CATACCCAACCTTGCCCGGTGGGTGAAGATATTTGT,58.4
TTCCATTTGAACTGTCACATGACGAAACAGATGAAC,2100
AATTGAAACCTCCGTCACGTTTTCTGATAATGTTGC,650
CGTCCTAGTGATTGCCCAGTGGGTGCCATGAGGAAG,72.4
CTATGACGAATCAATGACATGACAACATTTACCAAT,90.4
CGTCCTAGTGATTGGGTAGTGGGTGCCATGAGGAAG,84.1

# Some of these lines once more (sample 2):
Oligonucleotide,E-score
TGCTTGAA,0.169
AGTGCTCC,-0.224
GAGTAAAC,0.0215
AACGAAAC,0.0398
ACTGCGGC,-0.319
CGGAGCAG,-0.235
ATCTCAAA,0.271
TCCCGCCA,-0.165
AAGGATGT,-0.0812
ATAGCACA,0.11
CTCGGAAA,-0.0377
GGCATAAA,0.23
ACCTGCAA,-0.12
ATACGGCC,-0.108
CCTCCAGA,0.0588
